Assay results gathered from unrelated publications.
Lines come from different studies, so protocols differ. ≈ marks a conversion by molar mass, not a printed value.
Chain of UniProt P10721 (whole entry, looked up): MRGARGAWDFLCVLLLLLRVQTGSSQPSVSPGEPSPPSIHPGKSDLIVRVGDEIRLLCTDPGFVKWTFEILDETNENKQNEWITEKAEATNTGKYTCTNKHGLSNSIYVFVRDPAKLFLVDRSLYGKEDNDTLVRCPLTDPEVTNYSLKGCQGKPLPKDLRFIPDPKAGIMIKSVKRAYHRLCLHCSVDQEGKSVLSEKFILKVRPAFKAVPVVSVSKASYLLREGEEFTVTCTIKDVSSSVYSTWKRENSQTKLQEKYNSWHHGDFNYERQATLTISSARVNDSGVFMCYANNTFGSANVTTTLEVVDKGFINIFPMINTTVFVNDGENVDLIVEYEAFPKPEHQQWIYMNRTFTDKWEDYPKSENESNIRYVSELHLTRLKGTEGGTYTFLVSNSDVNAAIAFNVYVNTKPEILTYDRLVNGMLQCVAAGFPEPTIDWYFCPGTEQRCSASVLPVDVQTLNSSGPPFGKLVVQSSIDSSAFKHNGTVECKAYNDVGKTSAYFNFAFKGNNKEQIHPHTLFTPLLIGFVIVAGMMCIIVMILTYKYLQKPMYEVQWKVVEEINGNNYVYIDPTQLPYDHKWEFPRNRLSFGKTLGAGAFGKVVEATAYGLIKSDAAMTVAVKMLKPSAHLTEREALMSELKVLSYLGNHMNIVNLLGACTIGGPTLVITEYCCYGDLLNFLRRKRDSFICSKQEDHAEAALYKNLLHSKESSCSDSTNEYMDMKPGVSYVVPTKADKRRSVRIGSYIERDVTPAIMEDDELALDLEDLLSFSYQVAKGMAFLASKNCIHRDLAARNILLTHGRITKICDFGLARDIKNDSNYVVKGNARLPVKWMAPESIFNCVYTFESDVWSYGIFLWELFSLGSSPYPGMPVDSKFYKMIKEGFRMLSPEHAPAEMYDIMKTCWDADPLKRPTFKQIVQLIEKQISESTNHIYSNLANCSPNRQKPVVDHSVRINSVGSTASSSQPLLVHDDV
Chain of UniProt Q14004 (whole entry, looked up): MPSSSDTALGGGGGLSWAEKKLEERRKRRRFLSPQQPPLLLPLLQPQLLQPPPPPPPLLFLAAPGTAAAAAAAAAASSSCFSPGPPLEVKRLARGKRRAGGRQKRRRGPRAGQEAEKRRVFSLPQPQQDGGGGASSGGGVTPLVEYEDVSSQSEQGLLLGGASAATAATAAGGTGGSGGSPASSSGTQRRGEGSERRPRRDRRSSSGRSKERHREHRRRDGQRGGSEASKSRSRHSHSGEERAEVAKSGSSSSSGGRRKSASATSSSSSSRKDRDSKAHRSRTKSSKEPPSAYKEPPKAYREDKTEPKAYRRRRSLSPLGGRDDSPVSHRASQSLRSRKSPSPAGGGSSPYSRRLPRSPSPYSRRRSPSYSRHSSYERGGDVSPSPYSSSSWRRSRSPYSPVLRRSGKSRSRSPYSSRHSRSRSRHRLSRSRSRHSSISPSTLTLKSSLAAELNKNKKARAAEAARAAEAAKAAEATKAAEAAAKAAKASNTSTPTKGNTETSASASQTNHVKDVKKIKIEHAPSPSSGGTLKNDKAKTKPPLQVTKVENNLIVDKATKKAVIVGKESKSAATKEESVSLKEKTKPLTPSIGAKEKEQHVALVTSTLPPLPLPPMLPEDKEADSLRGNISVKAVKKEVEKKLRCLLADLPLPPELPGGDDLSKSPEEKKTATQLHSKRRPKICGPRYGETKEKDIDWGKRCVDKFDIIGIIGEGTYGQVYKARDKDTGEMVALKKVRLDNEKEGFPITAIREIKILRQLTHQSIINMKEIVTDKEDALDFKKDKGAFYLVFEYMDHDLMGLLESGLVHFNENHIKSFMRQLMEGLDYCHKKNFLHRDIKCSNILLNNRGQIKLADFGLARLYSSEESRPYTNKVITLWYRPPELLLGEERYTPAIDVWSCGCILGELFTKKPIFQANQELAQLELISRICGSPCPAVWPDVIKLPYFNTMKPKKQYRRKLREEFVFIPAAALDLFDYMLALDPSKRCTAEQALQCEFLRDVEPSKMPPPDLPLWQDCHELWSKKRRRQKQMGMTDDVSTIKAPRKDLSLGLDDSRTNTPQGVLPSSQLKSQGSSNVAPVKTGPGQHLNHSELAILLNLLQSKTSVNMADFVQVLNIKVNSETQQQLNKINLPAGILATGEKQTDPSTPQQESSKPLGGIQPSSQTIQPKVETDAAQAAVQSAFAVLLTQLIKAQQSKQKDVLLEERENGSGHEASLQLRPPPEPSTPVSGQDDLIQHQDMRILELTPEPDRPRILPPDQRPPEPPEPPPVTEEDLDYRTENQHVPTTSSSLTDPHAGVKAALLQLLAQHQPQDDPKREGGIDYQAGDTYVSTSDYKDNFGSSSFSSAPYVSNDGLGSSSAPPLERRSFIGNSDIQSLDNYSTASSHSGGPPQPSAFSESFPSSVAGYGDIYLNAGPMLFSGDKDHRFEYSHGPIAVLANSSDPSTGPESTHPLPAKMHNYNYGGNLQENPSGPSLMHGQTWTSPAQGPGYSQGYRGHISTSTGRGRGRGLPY
Chain of UniProt Q15759 (whole entry, looked up): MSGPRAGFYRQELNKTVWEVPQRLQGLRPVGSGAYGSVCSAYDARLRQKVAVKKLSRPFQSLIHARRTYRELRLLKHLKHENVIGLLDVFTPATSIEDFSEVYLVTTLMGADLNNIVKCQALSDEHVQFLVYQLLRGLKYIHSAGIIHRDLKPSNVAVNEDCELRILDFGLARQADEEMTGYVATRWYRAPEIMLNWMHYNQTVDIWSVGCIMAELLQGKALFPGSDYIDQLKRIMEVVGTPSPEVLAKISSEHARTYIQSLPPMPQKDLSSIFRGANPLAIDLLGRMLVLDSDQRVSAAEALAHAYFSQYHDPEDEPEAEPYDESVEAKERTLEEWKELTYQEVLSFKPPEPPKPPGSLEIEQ
Chain of UniProt P57058 (whole entry, looked up): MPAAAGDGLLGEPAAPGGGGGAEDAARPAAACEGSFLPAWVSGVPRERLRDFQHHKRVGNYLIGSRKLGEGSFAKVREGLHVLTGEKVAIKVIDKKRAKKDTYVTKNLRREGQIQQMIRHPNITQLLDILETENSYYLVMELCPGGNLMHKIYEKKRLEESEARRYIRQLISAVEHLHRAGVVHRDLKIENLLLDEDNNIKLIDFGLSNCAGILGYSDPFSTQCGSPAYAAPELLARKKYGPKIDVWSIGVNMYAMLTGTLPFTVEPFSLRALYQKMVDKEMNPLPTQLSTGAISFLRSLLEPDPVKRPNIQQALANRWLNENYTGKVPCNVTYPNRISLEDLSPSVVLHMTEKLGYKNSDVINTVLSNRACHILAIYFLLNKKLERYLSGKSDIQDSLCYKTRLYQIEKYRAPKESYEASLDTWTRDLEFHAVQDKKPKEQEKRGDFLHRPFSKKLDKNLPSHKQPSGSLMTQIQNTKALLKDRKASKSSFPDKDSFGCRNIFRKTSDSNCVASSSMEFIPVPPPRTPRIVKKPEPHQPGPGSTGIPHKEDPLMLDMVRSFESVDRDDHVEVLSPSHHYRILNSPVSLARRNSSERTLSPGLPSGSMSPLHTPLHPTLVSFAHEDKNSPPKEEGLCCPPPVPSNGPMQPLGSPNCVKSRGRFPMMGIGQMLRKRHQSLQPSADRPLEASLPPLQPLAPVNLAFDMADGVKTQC

`O=C(C#Cc1ccc(F)c(F)c1)c1cccc(Cl)c1`: “activity vs control” 97% (Pseudomonas aeruginosa; microbial growth, absorbance; 10 µM, 24 h).
`NCCCn1cc(C2=C(c3c[nH]c4ccccc34)C(=O)NC2=O)c2ccccc21` has an MIC of greater than 30 µM (Staphylococcus aureus; microbial growth; NCTC8325).
`CC(C)C(=O)O` — result for “activity vs control”: 107% (Cryptosporidium parvum; parasite growth, imaging; HCT-8; 1 mM, 24 h, intracellular).
`O=C(Nc1ccc2c(c1)OC(F)(F)O2)Nc1ccc(Cl)c(C(F)(F)F)c1` gave an MIC of 0.3 µM (≈ 0.118 µg/mL) (Staphylococcus aureus; microbial growth; clinical isolate).
`Cc1ccc(N(C)c2ccc(NC(=O)CN(C)c3ccccc3N3CCCC3=O)cc2)cn1` has an EC50 of 0.543 µM (Plasmodium falciparum; parasite growth; 3D7; 72 h, blood stage).
`O=C(O)c1ccc2c(c1)nc(Nc1cccc(Cl)c1)c1ccncc12` has an MIC of greater than 30 µM (Staphylococcus aureus; microbial growth; NCTC8325).
For `Cc1ccc2[nH]ccc2c1`, the EC90 was 1320 µM (Cryptosporidium parvum; parasite growth; HCT-8; 24 h, intracellular).
`O=C(CNc1ccccc1N1CCCC1=O)Nc1ccc(Oc2ccc(C(F)(F)F)cc2)cc1` has an EC50 of greater than 10 µM (Plasmodium falciparum; parasite growth; 3D7; 72 h, blood stage).
For `CNc1ncc2c(/C=C/C(=O)N3CCC(OC)CC3)nn(Cc3cccc(C(F)(F)F)c3)c2n1`, the remaining activity was 87% (Mitogen-activated protein kinase 11 (MAPK11, Homo sapiens, UniProt Q15759); enzyme activity, inhibitor, radiometric; 1 µM).
`CN(Cc1ccc(C(C)(C)C)cc1)Cc1cccc2ccccc12` gave an inhibition zone of 27 mm (Trichophyton rubrum; microbial growth, disc diffusion; ATCC28188; 0.001 µg/mL, 6 days).
For `COc1cc(C#CC(=O)c2ccc(C)cc2)ccc1O`, “activity vs control” read 102% (Pseudomonas aeruginosa; microbial growth, absorbance; 10 µM, 24 h).
`Cc1cc([C@@H](C)Nc2ccccc2C(=O)O)c2nc(N3CCC(F)(F)CC3)c(C#N)c(=O)n2c1` has a remaining binding of 100% (Mast/stem cell growth factor receptor Kit (KIT, Homo sapiens, UniProt P10721); binding, competition with immobilised ligand; 10 µM).
Under “activity vs control”, `OC(C#Cc1ccc(F)c(F)c1)c1ccccc1Cl` (centres unmarked) is recorded as 95% (Pseudomonas aeruginosa; microbial growth, absorbance; 10 µM, 24 h).
`C=CC(=O)N1CCC(COCC(=O)N2CCN(c3nc(-c4cnc(N)nc4C(F)F)nc(N4CCOC[C@@H]4C)n3)CC2)CC1` has a remaining binding of 79% (Hormonally up-regulated neu tumor-associated kinase (HUNK, Homo sapiens, UniProt P57058); binding, competition with immobilised ligand; 1 µM).
With `COc1ccc(Oc2ccc(NC(=O)CNc3ccccc3N3CCCC3=O)cc2)cc1` the EC50 was 4.15 µM (Plasmodium falciparum; parasite growth; 3D7; 72 h, blood stage).
Under “activity vs control”, `O=C(O)CCC(=O)C(=O)O` is recorded as 96.7% (Cryptosporidium parvum; parasite growth, imaging; HCT-8; 1 mM, 24 h, intracellular).
The inhibition of `Cc1cccc(N(O)N=Nc2ccc(S(=O)(=O)Nc3nccs3)cc2)c1` is reported as 54.2% (ABTS scavenging; 120 µg/mL).
`O=C(Nc1ccc(C(=O)c2ccccc2)cc1)Nc1ccc(Cl)c(C(F)(F)F)c1` gave an MIC of 1 µM (≈ 0.419 µg/mL) (Staphylococcus aureus; microbial growth; NCTC8325; 24 h).
`COc1ccc(C(=O)C#Cc2ccc(O)c(OC)c2)cc1`: “activity vs control” 86% (Pseudomonas aeruginosa; microbial growth, absorbance; 100 µM, 24 h).
The MIC of `CC(C)(C)c1cnc(CSc2cnc(NC(=O)C3CCNCC3)s2)o1` is reported as greater than 30 µM (Staphylococcus aureus; microbial growth; NCTC8325).
`COc1cc(-c2cncc3c2CN(C)Cc2cc(N4CCNCC4)ccc2-3)cc(OC)c1OC` has a remaining activity of 118% (Cyclin-dependent kinase 13, with cyclin K (CDK13, Homo sapiens, UniProt Q14004); enzyme activity, inhibitor; 1 µM).
With `Cc1ccc(Oc2ccc(NC(=O)CNc3ccccc3-n3cncn3)cc2)cc1` the EC50 was 1.93 µM (Plasmodium falciparum; parasite growth; 3D7; 72 h, blood stage).
Under “activity vs control”, `CCC(C)C(=O)C#Cc1ccc(O)c(OC)c1` (centres unmarked) is recorded as 94% (Pseudomonas aeruginosa; microbial growth, absorbance; 100 µM, 24 h).
The MIC of `COc1cc(Nc2nc3ccccc3nc2NS(=O)(=O)c2ccc(NC(=O)c3ccc(C)c(OC)c3)cc2)cc(OC)c1` is reported as greater than 30 µM (Staphylococcus aureus; microbial growth; NCTC8325).
`Nc1ccn([C@H]2C[C@H](O)[C@@H](COP(=O)(O)O)O2)c(=O)n1`: “activity vs control” 103% (Cryptosporidium parvum; parasite growth, imaging; HCT-8; 1 mM, 24 h, intracellular).
Under “activity vs control”, `OC(C#Cc1ccc(F)c(F)c1)c1ccccc1` (centres unmarked) is recorded as 94% (Pseudomonas aeruginosa; microbial growth, absorbance; 10 µM, 24 h).
For `O=C(O)CCC(=O)O`, “activity vs control” read 116% (Cryptosporidium parvum; parasite growth, imaging; HCT-8; 1 mM, 24 h, intracellular).
`CN1CCN(c2ccc3nc(-c4c(N)c5c(F)cccc5[nH]c4=O)[nH]c3c2)CC1` gave an MIC of greater than 30 µM (Staphylococcus aureus; microbial growth; NCTC8325).
Under “activity vs control”, `COc1cc(C#CC(O)c2ccccc2OC)ccc1O` (centres unmarked) is recorded as 96% (Pseudomonas aeruginosa; microbial growth, absorbance; 10 µM, 24 h).
Under “activity vs control”, `C[N+](C)(C)CCCC(=O)O` is recorded as 103% (Cryptosporidium parvum; parasite growth, imaging; HCT-8; 1 mM, 24 h, intracellular).
`O=C1O[C@H]([C@@H](O)CO)C(O)=C1O` gave an inhibition of 27% (ABTS scavenging; 30 µg/mL).
`Nc1ccn([C@@H]2O[C@H](CO)[C@@H](O)[C@H]2O)c(=O)n1`: “activity vs control” 94% (Cryptosporidium parvum; parasite growth, imaging; HCT-8; 1 mM, 24 h, intracellular).
`COc1cccc(C(O)C#Cc2ccc(O)c(OC)c2)c1` (centres unmarked): “activity vs control” 83% (Pseudomonas aeruginosa; microbial growth, absorbance; 100 µM, 24 h).
`COc1cc2nccc(Oc3ccc(NC(=O)Nc4ccc(F)cc4F)c(F)c3)c2cc1OC` has an MIC of greater than 30 µM (Staphylococcus aureus; microbial growth; NCTC8325).
`CN(Cc1ccc(C2(C(F)(F)F)CC2)cc1)Cc1cccc2ccccc12` gave an inhibition zone of no less than 55 mm (Trichophyton rubrum; microbial growth, disc diffusion; ATCC28188; 0.128 µg/mL, 6 days).

A few entries again:
`NCCCn1cc(C2=C(c3c[nH]c4ccccc34)C(=O)NC2=O)c2ccccc21` has an MIC of greater than 30 µM (Staphylococcus aureus; microbial growth; NCTC8325).
Under “activity vs control”, `CCC(C)C(=O)C#Cc1ccc(O)c(OC)c1` (centres unmarked) is recorded as 94% (Pseudomonas aeruginosa; microbial growth, absorbance; 100 µM, 24 h).
